Experimental data of several laboratories.
A part holds a random share of what one study measured. Positions count from the first letter of the parent shown.

Sample 1
Target: CCNF, cyclin fold, Cln2 fusion (human)
Method: yeast growth competition, sequencing
Matrix: yeast
Setting: strong parent motif
Relative to: not given
Reading: higher = stronger binding
Starting sequence: CDKN1A docking peptide (human); SKACRRLFGPVDS
Variant | normalised enrichment score
SKACRRLYGPVDS [F8Y] | 4.03
SKACRRVFGPVDS [L7V] | 1.24
SLACRRLFGPVDS [K2L] | 6.98
SKACRRLFGPEDS [V11E] | 7.57
SKACKRLLGPVDS [R5K F8L] | 0.256
SAACRRLFGPVDS [K2A] | 7.31
SKACRRLFGPVFS [D12F] | 6.98
SKACRRLFGPTDS [V11T] | 7.8
SKACRRLFQPVDS [G9Q] | 7.39
SKALRRLFGPVDS [C4L] | 1.55
SKACRRLFGSVDS [P10S] | 7.2
SKACRRLFGPFDS [V11F] | 7.63
SKACRMLFGPVDS [R6M] | 6.42
SKICRRLFGPVDS [A3I] | 8.34
SYACRRLFGPVDS [K2Y] | 7.75
STACRRLFGPVDS [K2T] | 7.63
SKACRRLFHPVDS [G9H] | 7.23
SKARRRLFGPVDS [C4R] | 8.26
SKACSRLFGPVDS [R5S] | 0.189
SKACRRLFGPVRS [D12R] | 6.52
SKMCRRLFGPVDS [A3M] | 5.32
SKACRKLFGPVDS [R6K] | 6.66
SKACRRLFGPDDS [V11D] | 8.2
SKACRRLHGPVDS [F8H] | 0.158

Sample 2
Target: ABI1, truncated, D143A, DHFR fusion (Arabidopsis thaliana)
Method: DHFR PCA, deep sequencing
Matrix: yeast
Setting: methotrexate growth selection, single substitutions
Together with: (+)-ABA 17 µM
Relative to: wild-type fitted maximum
Reading: higher = stronger binding
Starting sequence: PYL1, truncated, DHFR fusion (Arabidopsis thaliana); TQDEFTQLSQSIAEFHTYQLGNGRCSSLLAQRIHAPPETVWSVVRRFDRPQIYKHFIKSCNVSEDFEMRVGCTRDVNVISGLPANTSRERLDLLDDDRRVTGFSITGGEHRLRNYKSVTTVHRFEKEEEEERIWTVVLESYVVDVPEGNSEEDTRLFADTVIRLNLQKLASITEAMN; partner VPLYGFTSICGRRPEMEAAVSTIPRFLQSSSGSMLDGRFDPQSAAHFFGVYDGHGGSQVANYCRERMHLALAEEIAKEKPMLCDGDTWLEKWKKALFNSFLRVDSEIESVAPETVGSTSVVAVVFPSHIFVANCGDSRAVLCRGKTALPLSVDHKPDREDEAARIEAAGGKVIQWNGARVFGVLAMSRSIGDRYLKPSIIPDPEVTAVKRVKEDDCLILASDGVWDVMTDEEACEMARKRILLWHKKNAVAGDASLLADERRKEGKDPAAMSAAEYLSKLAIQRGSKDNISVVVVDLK
Variant | relative binding score [%]
R113Y | 59.2
L82G | 21.5
E129H | 86.9
M176Q | 86.4
I133L | 90.7
V142N | 47.3
T17N | 60.8
P146D | 3.59
S11F | 74.2
T17S | 77.1
K58D | 57.6
S117M | 24.3
E109A | 65.9
D92M | 28.1

Sample 3
Target: RING finger protein unkempt homolog, zinc fingers 1-6, GST-SBP tag (UNK, Homo sapiens, UniProt Q9C0B0, residues 30-357)
Method: RNA Bind-n-Seq
Molecule type: RNA
Matrix: in vitro
Tested at: not given
Setting: RNA with constant flanks, human and mouse sites, ends assumed
Relative to: input RNA pool
Reading: higher = stronger binding
Shared flanks, not repeated: GGGAGUUCUACAGUCCGACGAUC … CAACAGAGGAUUGAGCAUCA
Residues (chain): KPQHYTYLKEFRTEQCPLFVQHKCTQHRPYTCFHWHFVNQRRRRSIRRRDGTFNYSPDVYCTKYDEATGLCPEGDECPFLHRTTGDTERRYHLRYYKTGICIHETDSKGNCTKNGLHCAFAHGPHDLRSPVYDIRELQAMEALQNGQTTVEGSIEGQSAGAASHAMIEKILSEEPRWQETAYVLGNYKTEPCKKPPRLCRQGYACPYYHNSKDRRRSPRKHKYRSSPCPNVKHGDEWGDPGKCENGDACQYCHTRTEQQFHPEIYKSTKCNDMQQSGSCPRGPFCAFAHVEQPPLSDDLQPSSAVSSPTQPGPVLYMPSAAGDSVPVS
Sequence | bound/input enrichment
GCUGUAUUUUUAUCUUUUCCCUGUUAUGUUGAAUUCUAUACUUUAAUUUAUAAAUUUCAAAUUCUAUAAACCUACAUGACUGUUAUAAUCCUGGAAAAUGUUGGUGUCAGAAAAUGAAUG | 3.72 ratio
GUUCGAUUACUCUACGCAAAGCGACCAGGAAUUGGACUGUCUCCGUCUCACAGGAGGUACUUAGGCUACAUGUGCGACCUACUUGCAGAUAAGCCCUACCGCCCUCACUUCAAGCCACUC | 0.0709 ratio
CUUGUAAGAUCUAAAUCUCCCAAAAUCACUUAUUUUACAAGAUAUGCUAAAUGCAUUUUGAUGGAGAAUUCUCCUGGUGCUGAUUUUGAGGUUUGGUUUUAUGAUGGGGUAAAAAUACAC | 0.549 ratio
AACAUUAAUUUUCCUAAUCUCAAGCAAGACUACCCAGACUGGUCAAGCCGUUGCAAACAAAUCAUGAAGCUCUGGAGAAAGGUUCCAGCAGCUGACAAAGCCCCCUACCUGCAAAAGGCC | 0.674 ratio
GCCAUCCACCAGCUUUACUCUCUGACACACACACGCACACACACACACAAUUUUAACUUGUUUUUUUGUACAUAAUGUACAUACUGUCAAUUUUUUAUUAAAAGAAAUAUGCUUUGAUGU | 1.36 ratio
AAGCAACACUAAGCAUUCAUAAGUUAACCCAUGGUAAAGAGUGUUUUUCUGAAACUUUUUUUUAGUAAGAUGGUUUUUCAGCAAAUGGCAUUCCCAAGAUAAAGCUGUUGUGCUUUAACU | 0.123 ratio
GUCUCCAUUUUGUCAGCAAUGGAGCUCAUCUGGAACCUGUGUGAGAUUCUUUUUAUUGAAGUGGCCCCAGCUGGCCCUCUCCUCCUCCAUCUCCUUGACUGGGUCCGGCUCCAUGUGUGC | 0.271 ratio
AGACUUGAAACAAUAUUUUUUGCCAAGCAGGUAAUUAAUAAUGCUUGUGCCACUCAGGCUAUCGUAAGUGUACUACUGAACUGUACGCAUCAAGAUGUGCAUUUAGGAGAGACAUUAUCA | 0.929 ratio
GAAAACAUAUUCAGUCGUAUAGUAGAUAUACAUGAACUUAGUGUAAAGUUACUGGGCCAUAUAGAAGAUACUGUAGAAAUGACAGAUGAAGGCAGUCCCCACCCAUUAGUAGGAAGCUGU | 2.6 ratio
UAGUGAAUGGUUUCCCCAGUGUAUAUGAAUGUUUUAAGUGUCUCCAAUAGCUUAUGCAGUCUAGGAGCUUUCCAAUACUCAUUUAAUUAAGAUUUAAUCAUUUGCUAAUGGAAAUCUUAC | 0.566 ratio
UUCUAGAACUGGUAGCUCGGUCGUUUCGCACACUAGGUGGCAUACAGGCAGCAGCAGGUGUUCAUAUCCUUGAUUUUGAGAAUUUCCCCUCAAGUAUGUGGCAGUAAAUACAACAAGACA | 0.408 ratio

Sample 4
Target: CREB3L4, bZIP domain (human)
Method: DHFR protein complementation
Matrix: yeast
Setting: single substitutions, most at no-binding floor
Relative to: wild-type JUN-FOS pair
Reading: higher = stronger binding
Starting sequence: JUN, bZIP domain (human); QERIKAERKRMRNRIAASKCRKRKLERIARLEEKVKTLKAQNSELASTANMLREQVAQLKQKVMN; partner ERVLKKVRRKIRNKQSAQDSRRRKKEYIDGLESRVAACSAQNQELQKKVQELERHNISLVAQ
Variant | binding fitness
L45I | -1.48 natural log
I28F | -1.52 natural log
E44Q | -1.36 natural log
A57T | -1.46 natural log
K36I | -1.57 natural log
K39L | -1.37 natural log
Q41T | -1.49 natural log
E32K | -1.49 natural log
N42E | -1.45 natural log
A29Y | -1.35 natural log
A29H | -1.14 natural log
A46Q | -1.52 natural log
R53K | -1.15 natural log
L45T | -1.5 natural log
K39C | -1.48 natural log
R53G | -1.49 natural log

Sample 5
Target: Interferon regulatory factor 5, full length, phosphomimetic (IRF5, Homo sapiens, UniProt Q13568-2, residues 1-514, S451D/S453D/S456D/S462D)
Method: protein-binding microarray
Molecule type: double-stranded DNA, one strand shown
Matrix: in vitro
Tested at: 940 nM top
Setting: 60-bp whole probe
Together with: salmon DNA 0.4 mg/ml
Relative to: random background probes
Reading: higher = stronger binding
Shared flanks, not repeated: GCCTAGCAC … GTCTTGATTCGCTTGACGCTGCTG
Sequence | fitted relative affinity [z-score]
GACGGTTTCGAATTTCGGGACGTGCTA | 5.34
GACGGTTTCGACTTTCGAGACGTGCTA | 6.76
TTAGGACTCGACTTTCGGTTAGTGCTA | 2.71
TTAGGACTGGGACTGAGTTAGTGCTAG | -0.616
GGCGGACTGGGTCTCGGGACGTGCTAG | -0.395
TAGGCTCTGTGCTTTCCTGATGTGCTA | -0.13
GACGGTTTCGGGTATCGGGATGTGCTA | 9.64
TGTAGTGTGTGTCTGATTATGTGCTAG | 0.64
GAAGAACTGGGGTTTCGAGACGTGCTA | 1.66
GACGGACTCGACTTTCGGGACGTGCTA | 0.414
TTCTGAGCCTGGGTGGATGGGTGCTAG | -0.767
CAAAGAAAAAGAAAAAAAAAGGTGCTA | -0.223
TTAGGTTTCGTACTGGGTTAGTGCTAG | 6.23
GACGGGATCGACACTGGGGACGTGCTA | 0.0238
GTCGGTTTCCTTCTCCTGACGTGCTAG | 3.81
GACGGACTGCTTCTCGTGACGTGCTAG | -0.32
TAAGGTTTCGGTATCGGTTAGTGCTAG | 12.9
TTAGAACTGAGTTACGATTAGTGCTAG | -0.324
GACGATTTCGGGACTGAAGACGTGCTA | -0.2
GACAATTTCGGGACTGGAGACGTGCTA | 0.404
GACGGACTGGGGTTTCAGGACGTGCTA | 0.356
TTAGGTTTCCTTATCCTTAAGTGCTAG | 2.46
GACGATATCGGCTTTCGAGACGTGCTA | 0.394
GACGGTTTCCTTTTCTTGACGTGCTAG | 2.34
TTAGGACTTCTTCTCCTTTAGTGCTAG | 0.42

Mixed results
Substance | target | test | test system | conditions | scale | measurement | value
PhoQ, residues 284 288 289 292 302 303 SQSLSM | PhoP, residues 12 14 15 18 19 LWHCS (Escherichia coli, UniProt P23836) | Sort-seq, item: YFP reporter | E. coli | PhoQ-PhoP variant library, together with: 10 µM Mg2+ | relative to: high Mg2+ state, higher = stronger signaling | fold induction | 10.1

Some of these lines once more (sample 5):
Sequence | fitted relative affinity [z-score]
TTAGGTTTCGTACTGGGTTAGTGCTAG | 6.23
GACGGGATCGACACTGGGGACGTGCTA | 0.0238
GTCGGTTTCCTTCTCCTGACGTGCTAG | 3.81
GACGGACTGCTTCTCGTGACGTGCTAG | -0.32
TAAGGTTTCGGTATCGGTTAGTGCTAG | 12.9
TTAGAACTGAGTTACGATTAGTGCTAG | -0.324
GACGATTTCGGGACTGAAGACGTGCTA | -0.2
GACAATTTCGGGACTGGAGACGTGCTA | 0.404
GACGGACTGGGGTTTCAGGACGTGCTA | 0.356
TTAGGTTTCCTTATCCTTAAGTGCTAG | 2.46
GACGATATCGGCTTTCGAGACGTGCTA | 0.394
GACGGTTTCCTTTTCTTGACGTGCTAG | 2.34
TTAGGACTTCTTCTCCTTTAGTGCTAG | 0.42
